Measurements pooled from the literature.
Each line is one published result; not all experiments were run side by side.
Technique: steady-state kinetics
B1: COMT (Canis lupus familiaris, UniProt Q60F99); chain MGDTKEQRILRHVLQHAVAGDPQSVLEAIDTYCSQKEWAMNVGDKKGQILDAVVREQRPSVLLELGAYCGYSAVRMARLLEPGARLITIELNPDFAAITQQMLDFAGLQDRVTILTGASQDTIPELKKKHDVDTLDMVFLDHWKDRYLPDTLLLEECGLLQKGTVLLADNVICPGTPEFLAYVRGNNRFECTHFPSYLEYSKRVDGLEKVVYKGPGSPTQP
B2: enzyme R201K (Arabidopsis thaliana, UniProt O82390); chain MNARALLCSSNIHSLYTSNRPPEKTSSSRSLRNLKPSPKSLRVWIYPRNRSSVFRVLVRSSDKSESSNSYYVEGDKVSGNNDVVSDSPSSIVLPWWEEFPKRWVIVLLCFSAFLLCNMDRVNMSIAILPMSAEYGWNPATVGLIQSSFFWGYLLTQIAGGIWADTVGGKRVLGFGVIWWSIATILTPVAAKLGLPYLLVVKAFMGVGEGVAMPAMNNILSKWVPVQERSRSLALVYSGMYLGSVTGLAFSPFLIHQFGWPSVFYSFGSLGTVWLTLWLTKAESSPLEDPTLLPEERKLIADNCASKEPVKSIPWRLILSKPPVWALISCHFCHNWGTFILLTWMPTYYHQVLKFNLMESGLLSVFPWMTMAISANAGGWIADTLVSRGFSVTNVRKIMQTIGFLGPAFFLTQLKHIDSPTMAVLCMACSQGTDAFSQSGLYSNHQDIAPRYSGVLLGLSNTAGVLAGVLGTAATGHILQHGSWDDVFTISVGLYLVGTVIWNLFSTGEKIID
B3: CMBL (Homo sapiens, UniProt Q96DG6); chain MANEAYPCPCDIGHRLEYGGLGREVQVEHIKAYVTKSPVDAGKAVIVIQDIFGWQLPNTRYIADMISGNGYTTIVPDFFVGQEPWDPSGDWSIFPEWLKTRNAQKIDREISAILKYLKQQCHAQKIGIVGFCWGGTAVHHLMMKYSEFRAGVSVYGIVKDSEDIYNLKNPTLFIFAENDVVIPLKDVSLLTQKLKEHCKVEYQIKTFSGQTHGFVHRKREDCSPADKPYIDEARRNLIEWLNKYM
B4: FMO3 E308G (Homo sapiens, UniProt P31513); chain GKKVAIIGAGVSGLASIRSCLEEGLEPTCFEKSNDIGGLWKFSDHAEEGRASIYKSVFSNSSKEMMCFPDFPFPDDFPNFMHNSKIQEYIIAFAKEKNLLKYIQFKTFVSSVNKHPDFATTGQWDVTTERDGKKESAVFDAVMVCSGHHVYPNLPKESFPGLNHFKGKCFHSRDYKEPGVFNGKRVLVVGLGNSGCDIATELSRTAEQVMISSRSGSWVMSRVWDNGYPWDMLLVTRFGTFLKNNLPTAISDWLYVKQMNARFKHENYGLMPLNGVLRKEPVFNDELPASILCGIVSVKPNVKEFTGTSAIFEDGTIFEGIDCVIFATGYSFAYPFLDESIIKSRNNEIILFKGVFPPLLEKSTIAVIGFVQSLGAAIPTVDLQSRWAAQVIKGTCTLPSMEDMMNDINEKMEKKRKWFGKSETIQTDYIVYMDELSSFIGAKPNIPWLFLTDPKLAMEVYFGPCSPYQFRLVGPGQWPGARNAILTQWDRSLKPMQTRVVGRLQKPCFFFHWLKLFAIPILLIAVFLVLT
B5: UGT1A9 (Homo sapiens, UniProt O60656); chain GKLLVVPMDGSHWFTMRSVVEKLILRGHEVVVVMPEVSWQLGRSLNCTVKTYSTSYTLEDLDREFKAFAHAQWKAQVRSIYSLLMGSYNDIFDLFFSNCRSLFKDKKLVEYLKESSFDAVFLDPFDNCGLIVAKYFSLPSVVFARGILCHYLEEGAQCPAPLSYVPRILLGFSDAMTFKERVRNHIMHLEEHLLCHRFFKNALEIASEILQTPVTEYDLYSHTSIWLLRTDFVLDYPKPVMPNMIFIGGINCHQGKPLPMEFEAYINASGEHGIVVFSLGSMVSEIPEKKAMAIADALGKIPQTVLWRYTGTRPSNLANNTILVKWLPQNDLLGHPMTRAFITHAGSHGVYESICNGVPMVMMPLFGDQMDNAKRMETKGAGVTLNVLEMTSEDLENALKAVINDKSYKENIMRLSSLHKDRPVEPLDLAVFWVEFVMRHKGAPHLRPAAHDLTWYQYHSLDVIGFLLAVVLTVAFITFKCCAYGYRKCLGKKGRVKKAHKSKTH
B6: enzyme (Arabidopsis thaliana, UniProt O82390); chain MNARALLCSSNIHSLYTSNRPPEKTSSSRSLRNLKPSPKSLRVWIYPRNRSSVFRVLVRSSDKSESSNSYYVEGDKVSGNNDVVSDSPSSIVLPWWEEFPKRWVIVLLCFSAFLLCNMDRVNMSIAILPMSAEYGWNPATVGLIQSSFFWGYLLTQIAGGIWADTVGGKRVLGFGVIWWSIATILTPVAAKLGLPYLLVVRAFMGVGEGVAMPAMNNILSKWVPVQERSRSLALVYSGMYLGSVTGLAFSPFLIHQFGWPSVFYSFGSLGTVWLTLWLTKAESSPLEDPTLLPEERKLIADNCASKEPVKSIPWRLILSKPPVWALISCHFCHNWGTFILLTWMPTYYHQVLKFNLMESGLLSVFPWMTMAISANAGGWIADTLVSRGFSVTNVRKIMQTIGFLGPAFFLTQLKHIDSPTMAVLCMACSQGTDAFSQSGLYSNHQDIAPRYSGVLLGLSNTAGVLAGVLGTAATGHILQHGSWDDVFTISVGLYLVGTVIWNLFSTGEKIID
B7: FMO1 I303V (Homo sapiens, UniProt Q01740); chain AKRVAIVGAGVSGLASIKCCLEEGLEPTCFERSDDLGGLWRFTEHVEEGRASLYKSVVSNSCKEMSCYSDFPFPEDYPNYVPNSQFLEYLKMYANHFDLLKHIQFKTKVCSVTKCSDSAVSGQWEVVTMHEEKQESAIFDAVMVCTGFLTNPYLPLDSFPGINAFKGQYFHSRQYKHPDIFKDKRVLVIGMGNSGTDIAVEASHLAEKVFLSTTGGGWVISRIFDSGYPWDMVFMTRFQNMLRNSLPTPIVTWLMERKINNWLNHANYGLIPEDRTQLKEFVLNDELPGRIITGKVFIRPSVKEVKENSVIFNNTSKEEPIDIIVFATGYTFAFPFLDESVVKVEDGQASLYKYIFPAHLQKPTLAIIGLIKPLGSMIPTGETQARWAVRVLKGVNKLPPPSVMIEEINARKENKPSWFGLCYCKALQSDYITYIDELLTYINAKPNLFSMLLTDPHLALTVFFGPCSPYQFRLTGPGKWEGARNAIMTQWDRTFKVIKARVVQESPSPFESFLKVFSFLALLVAIFLIFL
UniProt H6U1I8, sequence (whole entry, looked up): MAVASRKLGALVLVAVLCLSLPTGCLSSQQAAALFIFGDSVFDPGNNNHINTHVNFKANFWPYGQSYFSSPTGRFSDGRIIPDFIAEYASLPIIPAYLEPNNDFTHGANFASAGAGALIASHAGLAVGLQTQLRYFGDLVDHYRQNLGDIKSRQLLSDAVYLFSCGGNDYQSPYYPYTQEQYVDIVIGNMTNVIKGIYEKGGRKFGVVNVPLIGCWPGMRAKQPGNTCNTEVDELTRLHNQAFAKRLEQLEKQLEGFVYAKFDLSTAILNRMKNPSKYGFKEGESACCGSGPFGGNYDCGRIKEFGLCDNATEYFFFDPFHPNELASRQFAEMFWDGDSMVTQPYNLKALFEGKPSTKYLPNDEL
UniProt Q3SY77, sequence (whole entry, looked up): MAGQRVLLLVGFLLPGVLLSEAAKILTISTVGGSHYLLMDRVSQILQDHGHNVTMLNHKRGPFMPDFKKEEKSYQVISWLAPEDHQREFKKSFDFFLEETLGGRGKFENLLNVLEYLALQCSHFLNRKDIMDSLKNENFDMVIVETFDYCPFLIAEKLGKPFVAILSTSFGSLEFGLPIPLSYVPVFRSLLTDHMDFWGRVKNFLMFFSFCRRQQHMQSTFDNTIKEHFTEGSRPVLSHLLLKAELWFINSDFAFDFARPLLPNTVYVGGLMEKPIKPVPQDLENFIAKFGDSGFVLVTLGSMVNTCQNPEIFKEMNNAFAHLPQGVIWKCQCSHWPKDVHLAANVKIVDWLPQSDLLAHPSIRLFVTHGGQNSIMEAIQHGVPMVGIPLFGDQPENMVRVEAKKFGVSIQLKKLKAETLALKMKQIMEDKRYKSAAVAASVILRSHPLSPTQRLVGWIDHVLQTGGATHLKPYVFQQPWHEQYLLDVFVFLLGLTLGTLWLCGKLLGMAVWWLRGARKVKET

Substance = B1 (COMT); substrate = O=c1oc2c(O)c(O)ccc2cc1-c1nc2ccccc2s1; system = dog liver S9; setting = pH 7.4, 37 °C; Vmax/Km = 627 µL/min/mg
Substance = B2 (enzyme R201K); substrate = O=P(O)(O)O; setting = pH 6.5, 25 °C, apparent, not purified; Vmax/Km = 8.33 µL/min/mg
Substance = FMO3 (Homo sapiens, UniProt P31513); substrate = CN1CCC[C@H]1c1cccnc1; system = HEK293 microsomes; setting = 37 °C, not purified, together with: NADPH regenerating system; Vmax/Km = 0.0161 µL/min/mg
Substance = B3 (CMBL); substrate = Cc1oc(=O)oc1COC(=O)[C@@H]1N2C(=O)[C@@H](NC(=O)[C@H](N)c3ccccc3)[C@H]2SC1(C)C; system = lysate; setting = pH 7.4, 37 °C, not purified; Vmax/Km = 63.1 µL/min/mg
Substance = B4 (FMO3 E308G); substrate = CN1CCC[C@H]1c1cccnc1; system = HEK293 microsomes; setting = 37 °C, not purified, together with: NADPH regenerating system; Vmax/Km = 0.0089 µL/min/mg
Substance = CYP2C19 (Homo sapiens, UniProt P33261); substrate = COc1cc2c(cc1CC=C(C)C)C(=O)C[C@@H](c1ccc(O)cc1)O2; setting = pH 7.4, 37 °C; Vmax/Km = 133 µL/min/mg
Substance = B5 (UGT1A9); substrate = COc1cccc2oc(-c3ccccc3)c(O)c(=O)c12; setting = pH 7.4, 37 °C; Vmax/Km = 24000 µL/min/mg
Substance = enzyme (Tanacetum cinerariifolium, UniProt H6U1I8); substrate = CC/C=C\CC1=C(C)[C@@H](O)CC1=O; setting = pH 7.5, 25 °C; Vmax/Km = 122 µL/min/mg
Substance = B6 (enzyme); substrate = O=P(O)(O)O; setting = pH 6.5, 25 °C, apparent, not purified; Vmax/Km = 71.7 µL/min/mg
Substance = UGT1A8 (Homo sapiens, UniProt Q9HAW9); substrate = COc1cc2c(cc1CC=C(C)C)C(=O)C[C@@H](c1ccc(O)cc1)O2; setting = pH 7.4, 37 °C; Vmax/Km = 109 µL/min/mg
Substance = B7 (FMO1 I303V); substrate = CN1CCC[C@H]1c1cccnc1; system = HEK293 microsomes; setting = 37 °C, not purified, together with: NADPH regenerating system; Vmax/Km = 0.0045 µL/min/mg
Substance = CYP2C19 (Homo sapiens, UniProt P33261); substrate = CN1C(=O)CC[C@H]1c1cccnc1; system = microsomes; setting = pH 6.7, cotinine to COX, not purified; Vmax/Km = 0.042 µL/min/mg
Substance = UGT3A2 (Homo sapiens, UniProt Q3SY77); substrate = O=c1ccn([C@@H]2O[C@H](COP(=O)(O)OP(=O)(O)O[C@H]3OC[C@@H](O)[C@H](O)[C@H]3O)[C@@H](O)[C@H]2O)c(=O)[nH]1; setting = pH 7.4, 37 °C, not purified, together with: 1-OH-pyrene 16 µM, MgCl2 10 mM, alamethicin; Vmax/Km = 1.4 µL/min/mg
Substance = enzyme (Candida albicans, UniProt A0A1D8PHX1); substrate = CC/C=C\C/C=C\C/C=C\CCCCCCCC(=O)SCCNC(=O)CCNC(=O)[C@H](O)C(C)(C)COP(=O)(O)OP(=O)(O)OC[C@H]1O[C@@H](n2cnc3c(N)ncnc32)[C@H](O)[C@@H]1OP(=O)(O)O; setting = pH 7.4, 37 °C, apparent, not purified; Vmax/Km = 1500 µL/min/mg

A few entries again:
Substance = B6 (enzyme); substrate = O=P(O)(O)O; setting = pH 6.5, 25 °C, apparent, not purified; Vmax/Km = 71.7 µL/min/mg
